{"data": "Measurements pooled from the literature", "note": "“And” joins repeats or separate records; there may be more than shown. ± marks the error that the study gave."}
{"Compound": "CN1CC[C@H](c2c(O)cc(O)c3c(=O)cc(-c4ccncc4)oc23)[C@H](O)C1", "target or system": "HIV-1", "test": "viral replication", "system": "HeLa-CD4-LTR/β-gal, LAI", "endpoint": "EC50", "result": "> 1000 nM"}
{"Compound": "O=c1c2ccc(Oc3ccc(OC(F)(F)F)cc3)cc2[nH]c2cc(F)cc(Cl)c12", "target or system": "Toxoplasma gondii", "test": "parasite growth, beta-galactosidase reporter", "system": "HFF, RH", "endpoint": "EC50", "result": "1.01 nM"}
{"Compound": "Cc1cccc2c1[nH]c1c(-c3ccc(Cl)c(Cl)c3)nc(C(=O)NCCNCCO)cc12", "target or system": "Plasmodium falciparum", "test": "SYBR Green I", "system": "Dd2", "conditions": "72 h, asexual blood stage", "endpoint": "EC50", "result": "91 ± 14 nM"}
{"Compound": "CCOc1ccc2cc(-c3nn(CC4(O)CN(C)C4)c4ncnc(N)c34)ccc2c1", "target or system": "Theileria equi", "test": "parasite growth, hydroethidine flow cytometry", "system": "Florida USDA", "conditions": "72 h", "endpoint": "EC50", "result": "7810 nM"}
{"Compound": "CN1CC[C@]23c4c5ccc(O)c4O[C@H]2c2ncc(-c4ccc(Cl)cc4)cc2C[C@@]3(OCCCc2ccccc2)[C@H]1C5", "test": "tolerance", "system": "CD-1 mouse, chemotherapy-induced neuropathy", "conditions": "sc, 10 mg/kg twice daily, 4 days", "endpoint": "days to zero efficacy", "result": "5.2 days"}
{"Compound": "C=Cc1cccc(-c2cc(=O)c3c(O)cc(O)c([C@H]4CCN(C)C[C@H]4O)c3o2)c1", "target or system": "HIV-1", "test": "viral replication", "system": "HeLa-CD4-LTR/β-gal, LAI", "endpoint": "EC50", "result": "32.1 nM"}
{"Compound": "C=CC(=O)Nc1cc(-n2c(=O)ccc3cnc4ccc(-c5cn[nH]c5)cc4c32)ccc1C", "target or system": "RV-1", "test": "cell growth", "conditions": "72 h", "endpoint": "GI50", "result": "> 10000 nM"}
{"Compound": "O=c1c2ccc(Oc3ccc(OC(F)(F)F)cc3)cc2[nH]c2cc(F)cc(F)c12", "target or system": "Toxoplasma gondii", "test": "parasite growth, beta-galactosidase reporter", "system": "HFF, RH", "conditions": "3 days", "endpoint": "EC50", "result": "0.053 nM"}
{"Compound": "CC(CCN[C@H](CN[C@H](CO)CN1CCC[C@H]1CN[C@H](CN)c1ccccc1)c1ccccc1)c1ccccc1 (stereo partly drawn)", "target or system": "Acinetobacter baumannii", "test": "bacterial growth", "conditions": "8 µM, fold shift of IC50, added: amikacin", "endpoint": "potentiation of amikacin", "result": "1.5 fold"}
{"Compound": "C[C@H](CS)C(=O)N[C@@H](Cc1c[nH]c2ccccc12)C(=O)O", "target or system": "Escherichia coli", "system": "IMP-1 producing", "conditions": "50 µM, added: meropenem", "endpoint": "MIC of meropenem", "result": "32 µg/mL"}
{"Compound": "CCc1cc(-c2ccc3cnn(C)c3c2)cc2c(Nc3cccc(OC)c3)c(C(N)=O)cnc12", "target or system": "Trypanosoma brucei brucei", "test": "cell viability, Alamar blue", "system": "bloodstream form", "conditions": "48 h", "endpoint": "EC50", "result": "7900 ± 2700 nM"}
{"Compound": "COC(C)(C)Cn1nc(-c2ccc3cc(OC4CC4)ccc3c2)c2c(N)ncnc21", "target or system": "Cryptosporidium parvum", "test": "parasite growth", "system": "HCT-8", "endpoint": "EC50", "result": "> 5000 nM and 5870 nM"}
{"Compound": "CN1CC[C@H](c2c(O)cc(O)c3c(=O)cc(-c4cccnc4)oc23)[C@H](O)C1", "target or system": "HIV-1", "test": "viral replication", "system": "HeLa-CD4-LTR/β-gal, LAI", "endpoint": "EC50", "result": "> 1000 nM"}
{"Compound": "CCOc1ccc2cc(-c3nn(CC4CCNCC4)c4ncnc(N)c34)ccc2n1", "target or system": "Theileria equi", "test": "parasite growth, hydroethidine flow cytometry", "system": "Florida USDA", "conditions": "72 h", "endpoint": "EC50", "result": "4170 nM"}
{"Compound": "NC[C@@H](NC[C@@H]1CCCN1C[C@@H](CO)NC[C@@H](NCCC1CC2CCC1C2)c1ccccc1)c1ccccc1 (stereo partly drawn)", "target or system": "Escherichia coli", "test": "bacterial growth", "conditions": "16 µM, fold shift of IC90, added: amikacin", "endpoint": "potentiation of amikacin", "result": "2.3 fold"}
{"Compound": "O=C(NCCNCCO)c1cc2c([nH]c3ccccc32)c(-c2ccc(Cl)c(Cl)c2)n1", "target or system": "Plasmodium falciparum", "test": "SYBR Green I", "system": "Dd2", "conditions": "72 h, asexual blood stage", "endpoint": "EC50", "result": "253 ± 3 nM"}
{"Compound": "COc1cc(F)c2c(=O)c3ccc(Oc4ccc(OC(F)(F)F)cc4)cc3[nH]c2c1", "target or system": "Toxoplasma gondii", "test": "parasite growth, beta-galactosidase reporter", "system": "HFF, RH", "endpoint": "EC50", "result": "0.17 nM"}
{"Compound": "CN1CC[C@H](c2c(O)cc(O)c3c(=O)cc(-c4ccc(C(F)(F)F)cc4)oc23)[C@H](O)C1", "target or system": "HIV-1", "test": "viral replication", "system": "HeLa-CD4-LTR/β-gal, LAI", "endpoint": "EC50", "result": "> 1000 nM"}
{"note": "Excerpt of the above:"}
{"Compound": "CN1CC[C@H](c2c(O)cc(O)c3c(=O)cc(-c4cccnc4)oc23)[C@H](O)C1", "target or system": "HIV-1", "test": "viral replication", "system": "HeLa-CD4-LTR/β-gal, LAI", "endpoint": "EC50", "result": "> 1000 nM"}
